Results collected from several papers.
A part holds a random share of what one study measured. Changes are numbered by the printed parent chain.

Set 1
Target: Fragile X messenger ribonucleoprotein 1, C-terminal low-complexity region (Fmr1, Mus musculus, UniProt P35922)
Technique: RNA Bind-n-Seq
Form: RNA
Sample: in vitro
Concentration: 200 nM
Setting: whole 134-nt RNA, ends assumed
Together with: 150 mM LiCl
Baseline: input library
Direction: higher = stronger binding
Each molecule: 7-deaza-guanosine replaces G
Constant ends, left off below: GGGAGUUCUACAGUCCGACGAUC … UGGAAUUCUCGGGUGUCAAGG
| Strand | log2 enrichment |
| --- | --- |
| CAAGUCCUGUGCUACACAUCGUAUGUACCGAAUCGGUUUUUGGAAAGGUUUUUGGAAAGUAUUAUGUUACGCCGUUCGGAUCUGCACUUC | -1.94 |
| UUGUGUUCGUGAAUUGUAACUCCAGAAGCAAUGCCUGUACAAGCUCCACAAUGGACGGAUUUCCUCUCCUGCCCAAUUUGCACUCAGACU | 1.8 |
| GUCCUGUGCUACACAUCGUAUGUACCGAAUCGGGGUUUGGGGUUUUUGGGGUUUGGGGAAAGUAUUAUGUUACGCCGUUCGGAUCUGCAC | -0.118 |
| CUCAAGUCCUGUGCUACACAUCGUAUGUACCGAAUCGGGGUGGGGUGGGGUGGGAAAGUAUUAUGUUACGCCGUUCGGAUCUGCACUUCC | -0.83 |
| UGUGCUACACAUCGUAUGUACCGAAUCGGGGUUUUUGGGGAAAAAAAGGGGAAAAAAAGGGGAAAGUAUUAUGUUACGCCGUUCGGAUCU | -0.298 |
| CCUGUGCUACACAUCGUAUGUACCGAAUCGGCCCCCCCGGCCCCCCCGGGCCCCCCCGGGGAAAGUAUUAUGUUACGCCGUUCGGAUCUG | 0.768 |
| CAAGUCCUGUGCUACACAUCGUAUGUACCGAAUCGGAAAGGGGAAAGGGAAAGGGGAAAGUAUUAUGUUACGCCGUUCGGAUCUGCACUU | -0.479 |
| GUCCUGUGCUACACAUCGUAUGUACCGAAUCGGGGAAAGGGGAGGGGUUUUUUUGGGGAAAGUAUUAUGUUACGCCGUUCGGAUCUGCAC | 0.624 |

Set 2
Target: CCNB1, cyclin fold, Cln2 fusion (human)
Technique: yeast growth competition, sequencing
Sample: yeast
Setting: weak parent motif
Baseline: not given
Direction: higher = stronger binding
Starting sequence: RBL1 docking peptide (human); GSAKRRLFGEDPP
| Variant | normalised enrichment score |
| --- | --- |
| S2Q | 0.521 |
| A3G | -0.0414 |
| G9V | 0.906 |
| D11E | 1.03 |
| D11I | 0.24 |
| K4A | 0.926 |
| P13H | 1.4 |
| L7F | 0.17 |
| L7D | -0.176 |
| E10W | 0.471 |
| R5K F8L | 0.127 |
| R5L | 0.877 |
| R6A | 0.137 |
| P12A | 0.691 |
| G1V | 0.933 |
| F8I | 0.752 |

Set 3
Target: ABI1, truncated, D143A, DHFR fusion (Arabidopsis thaliana)
Technique: DHFR PCA, deep sequencing
Sample: yeast
Setting: methotrexate growth selection, single substitutions
Together with: (+)-ABA 17 µM
Baseline: wild-type fitted maximum
Direction: higher = stronger binding
Starting sequence: PYL1, truncated, DHFR fusion (Arabidopsis thaliana); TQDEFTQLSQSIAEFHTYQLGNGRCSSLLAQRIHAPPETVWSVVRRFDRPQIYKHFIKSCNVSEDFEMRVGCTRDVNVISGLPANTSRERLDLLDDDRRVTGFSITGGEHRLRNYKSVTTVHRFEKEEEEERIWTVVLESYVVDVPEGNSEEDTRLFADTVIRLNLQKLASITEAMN; partner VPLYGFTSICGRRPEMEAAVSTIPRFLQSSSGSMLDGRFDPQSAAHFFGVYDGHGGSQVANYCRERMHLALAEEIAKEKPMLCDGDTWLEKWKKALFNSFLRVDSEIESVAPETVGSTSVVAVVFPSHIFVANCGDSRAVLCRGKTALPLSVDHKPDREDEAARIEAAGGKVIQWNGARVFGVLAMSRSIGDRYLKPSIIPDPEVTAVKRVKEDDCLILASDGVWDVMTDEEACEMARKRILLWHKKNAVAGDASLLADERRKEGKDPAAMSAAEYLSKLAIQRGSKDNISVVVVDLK
| Variant | relative binding score |
| --- | --- |
| R132Y | 78.7% |
| L166K | 4.03% |
| Q31T | 35.1% |
| H122C | 24.8% |
| H110L | 6.65% |
| S171W | 66.2% |
| V137N | 12.4% |
| L93T | 77% |
| V118P | -4.72% |
| I79T | 70.9% |
| S26E | 25.7% |
| E64F | 66% |
| F47R | -5.98% |
| S150R | 33.7% |
| P37H | 20% |
| G71S | 17.3% |
| M176C | 70.3% |
| I133E | 107% |
| S59V | 50.3% |

Set 4
Target: Interferon regulatory factor 3, full length, phosphomimetic (IRF3, Homo sapiens, UniProt Q14653, residues 1-427, S386D/S396D/S398D/S402D/T404D/S405D)
Technique: protein-binding microarray
Form: double-stranded DNA, one strand shown
Sample: in vitro
Concentration: 2540 nM top
Setting: 60-bp whole probe
Together with: salmon DNA 0.4 mg/ml
Baseline: random background probes
Direction: higher = stronger binding
Constant ends, left off below: GCCTAGCAC … GTCTTGATTCGCTTGACGCTGCTG
Residues (chain): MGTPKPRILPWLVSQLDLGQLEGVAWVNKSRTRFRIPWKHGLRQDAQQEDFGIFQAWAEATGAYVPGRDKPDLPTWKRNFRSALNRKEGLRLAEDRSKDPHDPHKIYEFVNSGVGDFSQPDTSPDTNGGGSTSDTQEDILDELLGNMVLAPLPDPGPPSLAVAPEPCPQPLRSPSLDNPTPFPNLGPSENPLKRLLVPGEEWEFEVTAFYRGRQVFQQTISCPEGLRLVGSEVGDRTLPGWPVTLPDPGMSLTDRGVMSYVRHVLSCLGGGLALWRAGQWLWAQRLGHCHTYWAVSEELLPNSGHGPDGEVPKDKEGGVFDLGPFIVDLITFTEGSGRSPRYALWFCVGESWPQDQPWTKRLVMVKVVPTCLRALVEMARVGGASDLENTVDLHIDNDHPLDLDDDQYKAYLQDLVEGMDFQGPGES
| Strand | fitted relative affinity [z-score] |
| --- | --- |
| GACGGACTGCTACTGCGGACGTGCTAG | -0.606 |
| TTAGGTATCGAGTTTCGGTTAGTGCTA | 3.69 |
| GACGGTTTCCACACTGGGGACGTGCTA | 4.69 |
| GACGATATCAGGTATCGAGACGTGCTA | 0.628 |
| GGGAGCTATTAATTATTTTGGTGCTAG | -0.486 |
| TTATGTATCGGTTTCGGTTAGTGCTAG | 8.43 |
| GACGGTCTCGGTTGCGGGACGTGCTAG | 0.926 |
| TTAGATTTCGGTATCGATTAGTGCTAG | 4.94 |
| GACGAACTGAGTATCGAAACGTGCTAG | 0.633 |
| TTAGTTTTCCTTTCCCTTTAGTGCTAG | 9.44 |
| GACGATCTGAGTCTCGAGACGTGCTAG | 0.00723 |
| TTAGGACTGGGGCATCGGTTAGTGCTA | -0.962 |
| TCAATTATTGTCTTCCCACTGTGCTAG | 0.325 |
| CTCCCCTTGCTTTCCAATTCGTGCTAG | 2.61 |
| TTAGGTATCGGGTTTCGGCTAGTGCTA | 2.42 |
| GACGATCTCAGGATCGAGACGTGCTAG | 0.374 |
| TATTGTGTCAACTTTCTCTGCGTGCTA | 0.843 |
| ATTGGTCTTCACTTGGCAAAGTGCTAG | -0.274 |
| GACGGTCTCGGACTAGGGACGTGCTAG | 0.344 |

Repeated from above (set 3):
| Variant | relative binding score |
| --- | --- |
| V118P | -4.72% |
| I79T | 70.9% |
| S26E | 25.7% |
| E64F | 66% |
| F47R | -5.98% |
| S150R | 33.7% |
| P37H | 20% |
